Results pooled from the literature.
Every numbered part comes from another study and shows a few of its results, in no order.

Set 1
Target: Sal-like protein 4, full length isoform B (SALL4, Homo sapiens, UniProt Q9UJQ4-2, residues 1-616)
Method: universal PBM
Molecule type: double-stranded DNA, one strand shown
Medium: in vitro
Concentration: not given
Notes: 8-mer, flanks averaged, mean of replicates
Reading: higher = stronger binding
Endpoint: E-score
CGACAAAC: 0.0372
CAAGCGAA: -0.113
ATCTATAA: 0.387
AGCAATAT: 0.384
ACGCGAGT: -0.127
ATTCTTGG: 0.12
TCCGACCA: -0.174
CCGGCCGG: -0.284
CCGTCCAG: -0.258
GACGTAAC: 0.0126
AGCCGTAT: 0.0729
ATAGTGCG: 0.0216
CTATTTAC: 0.2
AGTCTAGA: 0.0216
AAATACCA: 0.208
AGTGAAGG: -0.0284
AGCTCGGG: -0.29
GCTCGAGC: -0.021
GACTTTGA: 0.12
AGCTCTCG: -0.128
TCACCGCA: -0.121
TCGAACAA: 0.102
ACCTTGCC: -0.106
ATAAACGG: 0.3
AGACTGTC: -0.0219

Set 2
Target: Centromere-binding protein 1, full length, His-tagged (CBF1, Saccharomyces cerevisiae, UniProt P17106, residues 1-351)
UniProt P17106, sequence (whole entry, looked up): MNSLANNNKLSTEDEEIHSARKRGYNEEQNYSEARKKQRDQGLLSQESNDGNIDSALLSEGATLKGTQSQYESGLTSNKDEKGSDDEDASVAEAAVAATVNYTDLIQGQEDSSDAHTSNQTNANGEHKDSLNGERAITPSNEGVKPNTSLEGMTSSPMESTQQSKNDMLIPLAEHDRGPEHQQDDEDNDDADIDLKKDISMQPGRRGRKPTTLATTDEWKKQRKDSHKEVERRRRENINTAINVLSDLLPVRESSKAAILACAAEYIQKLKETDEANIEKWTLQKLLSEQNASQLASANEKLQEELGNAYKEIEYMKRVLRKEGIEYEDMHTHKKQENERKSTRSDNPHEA
Method: competition protein-binding microarray
Molecule type: double-stranded DNA, one strand shown
Medium: in vitro
Concentration: 2 µM
Notes: whole 60-bp probe, lowest competitor level
With: Pho4 competitor, 0.05 µM
Reading: higher = stronger binding
Endpoint: fluorescence intensity
Constant ends, left off below: … GTCTTGATTCGCTTGACGCTGCTG
AGCTAAGCGTCTACCCACGTAACAAACAATCTTGCC: 78.5 a.u.
GCCGGCCTTTATACCCACGGGTGCATCTTCAAAGAC: 70.9 a.u.
AAAGCGGTAATTTTTCACGTGAGGTCAAATATCTAT: 1690 a.u.
TGTTTGCTTGATCCACACGTGTATATAAAAATGTTT: 1440 a.u.
CTTTCCCGATCTTGTCACCTCACTTTAGCACATTTG: 74.4 a.u.
TGCGCAACAACTTGCTGTGTGGGTGTATGTCTAGAA: 59 a.u.
CTTTCCCGATCTTGTCACGTCACTTTAGCACATTTG: 128 a.u.
TGCGCAACAACTTGACCAGTGGGTGTATGTCTAGAA: 64.7 a.u.
GACGGAAGACTCTCCTCCGTGCGATCTCGTCTTCAT: 62.4 a.u.
CTTTCCCGATCTTGTTGCGTGGGTGTAGCACATTTG: 73.5 a.u.
TTATCGTTGTGTAACCACGTAGAGAATCCCTTATAA: 69.9 a.u.
AGCAAGTAATCTTTGCACGTGGCCGGACGTAGATGA: 1050 a.u.
ACCAAGACTAACGGCCACGCTGCACCAACCACCAAG: 72.3 a.u.
AGAGGGCAGAATTTGTCCGTGCGGACATTTGCCTGT: 62.9 a.u.
CGGGGTTAAGTTTGCACCGTGGGTGGCTTGCAGCAG: 74 a.u.
CCTTGAGGAGAACTTCTAGTATATCTACATACCTAA: 83.6 a.u.
CCTCACTCTTTTCCTCTCGTGACGGATTCAACATCA: 244 a.u.
TTGTTTTTTGTGTGGCATGTGCAGCGAGCGATGAGT: 149 a.u.

Set 3
Target: RNA binding protein fox-1 homolog 2, RRM domain, GST-SBP tag (RBFOX2, Homo sapiens, UniProt O43251-10, residues 100-194)
Method: RNA Bind-n-Seq
Molecule type: RNA
Medium: in vitro
Concentration: 365 nM
Notes: natural RNA segment, single round, ends assumed
Relative to: no-protein control
Reading: higher = stronger binding
Endpoint: RBNS enrichment (R)
Constant ends, left off below: GGGAGUUCUACAGUCCGACGAUC … UGGAAUUCUCGGGUGCCAA
Target sequence (chain): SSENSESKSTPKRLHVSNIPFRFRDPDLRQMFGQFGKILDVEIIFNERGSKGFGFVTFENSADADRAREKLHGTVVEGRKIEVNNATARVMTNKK
CAGUGUCACUAGAAUUUUGAAGACAGGAAAGUGGAGGUUAGUCUGUGGCCUUUUUUUCAUUUAGCCAUUGCACAGUCAGCUGCAGAAGUCCUGCUGACCACCUAGUCAUG: 0.502
UUGACCCCAAUGCCUCUGUUUACCAGCCCCUGAAGAAAUGAGGCCAGCUGUGUGUUGUGCCCAAAAAUUUGGUUACCGGAAGGCAUUGCAAAGGAGCGUCUCUGGCAGUC: 0.447
AAGGGAAGCCACCUUCCAAGAACUGGAACAUGUGCAUCUUUUGUGCCACCUUGUACAAAGCCAGCUGACCAGCCCCCGCCUCCUCACCACACCCCAGCUCCUAUCUUCUG: 0.811
CUUCCCUUUCUCAGUUCCUGACCUUCCUCUGAGCCCUUGAGACACUUUGUAAUGCUCUUUUGUAACUAUCGACAAAGGUGUGGGGAAGCUGAGGUCUAGGUCUUCUUAAA: 0.343
GCUGAAGAUUUUGGAGCCUAUCCAUGGUUCAGGGCAGUAGAACUGGCUUCCUCUAUGGAUGCUUCCAGCGGACAACCACCAUCUCUGUGUCUCUCUCAUUCUCUCUUCAC: 0.524
AGGAGCCCCAUAGUCCCGCCUGCAGCCUGUAACCAUCGGCUGGGCCCUGCAAGGCCCACACUCACGCCCUGUGGGUGAUGGUCACGGUGGGUGGGUGGGGGCUGACCCCA: 0.375
GCAGGGGCCUUGGGGCUCCUGGAAGCCGUGAGGUUUCUGUUUAGGCCUUAACCGAAGGCAACCUCUGCUCCAGAUGGAUGGUACCAGUAGCUUCUUAAUUCCAAUACUAA: 0.238
AAGCUCCUUUAUCCUAUAGAUUCUAUCUUUAUGUUCAUCUGAAAUGAACUAUUCAUCAGUACUUUCUCCUCCCAUCCUAAGCUUCUCAUUUUAGGAACUGACAUGAUAAG: 0.672
AGAAAUGCACUACAAAGUUAAGACAGAUUUUUGCUAAGUGCAGGAGGCCCUUUAUUAUUGCUGCAGAAAACAAAAGCCUGGCUGAGUUGAUGUUUUACAUUCUCCCUUAC: 0.407
GUGACCUUUUGUCCUUUACCUGAUUGGCACUUCGCAGUCUAUCUCCCUGGGUAGCAGACGGCUGCUGCCCUUCUCUGGGCAUGUUCUGAAUGUUUACACUGGUACCUUCU: 3.24
UCAGCAUGUUUCUCUCCUUGGACCUUGGGUUUCCAACUCUGCAGCCUUCAGGUCUGGGGCCAGGAGUGGGACCCACCAUUUGUGGGGAAAGUAGCAUUCCUCCACCUCAG: 4.74
AGCUUUGAGAACCCUCCUUUUAGUAUAUGAAAAAGCCUAAUGCGCAUUCAUGAGGUUGGAGAGACUAUGAGAAAUAUGUAUAGUGUAUAUUUUAAACAGCUUUGCUUGUA: 2.06

Set 4
Target: Interferon regulatory factor 3, full length, phosphomimetic (IRF3, Homo sapiens, UniProt Q14653, residues 1-427, S386D/S396D/S398D/S402D/T404D/S405D)
Method: protein-binding microarray
Molecule type: double-stranded DNA, one strand shown
Medium: in vitro
Concentration: 2540 nM top
Notes: 60-bp whole probe
With: salmon DNA 0.4 mg/ml
Relative to: random background probes
Reading: higher = stronger binding
Endpoint: fitted relative affinity
Constant ends, left off below: GCCTAGCAC … GTCTTGATTCGCTTGACGCTGCTG
Target sequence (chain): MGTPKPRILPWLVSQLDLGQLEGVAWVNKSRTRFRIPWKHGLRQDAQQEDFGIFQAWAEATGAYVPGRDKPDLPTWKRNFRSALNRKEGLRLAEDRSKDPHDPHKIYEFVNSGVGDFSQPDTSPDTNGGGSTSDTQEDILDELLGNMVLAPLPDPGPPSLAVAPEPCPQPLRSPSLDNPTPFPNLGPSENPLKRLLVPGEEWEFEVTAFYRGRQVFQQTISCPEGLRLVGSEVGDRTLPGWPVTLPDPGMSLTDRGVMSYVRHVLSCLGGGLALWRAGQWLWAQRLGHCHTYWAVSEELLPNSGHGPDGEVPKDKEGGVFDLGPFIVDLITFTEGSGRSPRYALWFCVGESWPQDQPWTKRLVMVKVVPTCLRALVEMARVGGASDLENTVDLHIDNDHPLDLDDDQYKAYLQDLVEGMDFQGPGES
TTAGGTTTCGCTCTCGGTTAGTGCTAG: 6.85 z-score
TTCTTAATGCTTCTGGACCAGTGCTAG: 0.525 z-score
GACGATATCCTTATCCTGACGTGCTAG: 2.4 z-score
GCCGATATCAGTCTCGAGACGTGCTAG: 1.65 z-score
GACCGTCTCCTTCTCCTGACGTGCTAG: 3.24 z-score
AGCTATCACTATTCTAGGGAAGTGCTA: 1.01 z-score
GACGGGATCGGGACTGGGGACGTGCTA: -0.247 z-score
TTAGGTTTCGACACTGGGTTAGTGCTA: 2.56 z-score
TCAAGTTTCATTCCTGAACTGTGCTAG: 3.41 z-score
GACGGACTGCGTCTCGGGACGTGCTAG: -0.78 z-score
TTAGGTATCGACTTTCTGTTAGTGCTA: 1.3 z-score
TTATGTTCCGGTTTCGGTTAGTGCTAG: 7.2 z-score
TTAGAAATCAGACTGGATTAGTGCTAG: -0.187 z-score
TCAGTATTTTTTCTGAAACTGTGCTAG: 0.889 z-score
GACGGACTGAACTTTCGGGACGTGCTA: 0.43 z-score
TACGGACTGGGACTGGGGACGTGCTAG: -0.723 z-score
TTAGATTTCGGGTAACGATTAGTGCTA: 0.822 z-score
GACGGACTGCTTCTCCTGAGGTGCTAG: -0.489 z-score
GACAATTCCAGTTTCGAGACGTGCTAG: 3.46 z-score
TTAGGTATCCTTTTCCTTTGGTGCTAG: 8.36 z-score
GACGATCTAAGTATCGAGACGTGCTAG: 0.455 z-score

Set 5
Target: Histone acetyltransferase KAT6A, both winged helices, GST fusion (KAT6A, Homo sapiens, UniProt Q92794, residues 1-181)
Method: protein binding microarray
Molecule type: double-stranded DNA, one strand shown
Medium: in vitro
Concentration: not given
Notes: 8-mer, flanks averaged, mean of 2 arrays, mostly near background
Relative to: not given
Reading: higher = stronger binding
Endpoint: E-score
Residues (chain): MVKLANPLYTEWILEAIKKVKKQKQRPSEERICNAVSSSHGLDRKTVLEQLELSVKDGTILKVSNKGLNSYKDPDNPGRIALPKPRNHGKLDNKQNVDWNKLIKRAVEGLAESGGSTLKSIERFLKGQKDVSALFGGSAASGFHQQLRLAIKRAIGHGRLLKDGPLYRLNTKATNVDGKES
ATATACGG: 0.125
CATGGACC: -0.00639
ACAAGAGA: -0.134
ATGCGACA: 0.208
ACAATAGT: -0.108
CGCCCCAC: -0.115
CCTAGTCA: -0.288
GCGCACAA: 0.287
CCCGCCTC: 0.177
ATTAACCA: -0.0962
ACCAGGGG: -0.266
GAGGTCGA: -0.216
GATCTCCA: -0.182
GTCCATCA: -0.101
ACTCGGAG: -0.101
AAAGTAAG: -0.119
GATTTAAC: 0.0955
GACTTCGA: -0.0113
CAGCGCCA: 0.13
CTCTCAAG: -0.238
GTCGGTGA: 0.0166
CCTAATGA: -0.247

Some of these lines once more (set 2):
AGCTAAGCGTCTACCCACGTAACAAACAATCTTGCC: 78.5 a.u.
TGCGCAACAACTTGACCAGTGGGTGTATGTCTAGAA: 64.7 a.u.
TTATCGTTGTGTAACCACGTAGAGAATCCCTTATAA: 69.9 a.u.
CGGGGTTAAGTTTGCACCGTGGGTGGCTTGCAGCAG: 74 a.u.
CTTTCCCGATCTTGTTGCGTGGGTGTAGCACATTTG: 73.5 a.u.
